Published values pooled from the literature.
Compare with care: the assays were run in different laboratories.
Target: Voltage-gated inwardly rectifying potassium channel KCNH2 (KCNH2, Homo sapiens, UniProt Q12809)
UniProt Q12809, sequence (whole entry, looked up): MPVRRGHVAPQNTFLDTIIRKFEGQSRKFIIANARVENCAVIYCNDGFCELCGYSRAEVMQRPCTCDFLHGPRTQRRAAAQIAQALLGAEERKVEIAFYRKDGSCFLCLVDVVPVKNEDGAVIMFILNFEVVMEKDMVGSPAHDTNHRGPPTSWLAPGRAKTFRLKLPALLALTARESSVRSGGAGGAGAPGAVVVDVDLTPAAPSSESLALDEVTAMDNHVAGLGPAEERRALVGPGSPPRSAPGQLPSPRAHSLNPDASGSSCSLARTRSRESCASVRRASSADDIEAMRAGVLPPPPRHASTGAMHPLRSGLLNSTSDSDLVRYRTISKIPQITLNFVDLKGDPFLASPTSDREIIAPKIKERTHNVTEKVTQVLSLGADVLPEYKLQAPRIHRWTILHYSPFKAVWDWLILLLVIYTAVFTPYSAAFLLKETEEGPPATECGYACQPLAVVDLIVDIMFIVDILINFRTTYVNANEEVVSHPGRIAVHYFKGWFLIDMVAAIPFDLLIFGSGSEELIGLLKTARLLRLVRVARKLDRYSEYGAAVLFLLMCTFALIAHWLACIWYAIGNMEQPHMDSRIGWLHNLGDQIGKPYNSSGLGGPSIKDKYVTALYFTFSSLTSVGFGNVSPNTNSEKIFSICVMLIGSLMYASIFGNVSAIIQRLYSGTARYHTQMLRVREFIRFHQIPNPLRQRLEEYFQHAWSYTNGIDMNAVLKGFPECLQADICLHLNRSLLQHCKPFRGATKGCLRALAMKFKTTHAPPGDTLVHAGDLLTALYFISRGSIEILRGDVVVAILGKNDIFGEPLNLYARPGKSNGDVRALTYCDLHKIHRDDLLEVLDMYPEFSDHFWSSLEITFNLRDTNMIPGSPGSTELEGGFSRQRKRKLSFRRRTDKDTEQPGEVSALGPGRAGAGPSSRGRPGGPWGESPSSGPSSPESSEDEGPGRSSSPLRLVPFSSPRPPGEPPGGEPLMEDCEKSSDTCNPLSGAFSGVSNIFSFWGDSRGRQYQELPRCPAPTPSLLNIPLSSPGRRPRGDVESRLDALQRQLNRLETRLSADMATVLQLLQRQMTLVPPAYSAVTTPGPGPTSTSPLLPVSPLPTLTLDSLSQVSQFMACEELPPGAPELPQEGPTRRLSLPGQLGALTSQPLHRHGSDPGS

SMILES	test	system	conditions	IC50
Cn1cc(-c2cc(N3CCCS3(=O)=O)ccc2N[C@H]2CC[C@H](C)CC2)c2cc[nH]c2c1=O	ion current, inhibitor	–	–	> 40 µM
NC(=O)c1c(F)ccc(OCc2nc3cc(Cl)cnc3s2)c1F	ion current, inhibitor, patch clamp	–	–	> 10 µM
N#Cc1ccc(Nc2ncc(CO)c(Oc3c(F)cc(-c4ccc(C#N)cc4)cc3F)n2)cc1	ion current, inhibitor, patch clamp	CHO	–	> 40 µM
C[C@H]1CN(C(=O)c2cn(-c3ccnc(N)n3)c3cc(C#CC4(O)CCCCC4)ccc23)CCN1	–	–	–	> 30 µM
[2H]c1c(NS(C)(=O)=O)c([2H])c2c(C(=O)c3ccc(OCCCN(CCCC)CCCC)cc3)c(CCCC)oc2c1[2H]	tail potassium current, blocker, whole-cell patch clamp	HEK293FT transfected	co-expressed KCNE1	0.17 µM
COc1ccc2c(c1OCc1ccccc1)C[C@@H](C(=O)O)N(c1nc3ccc(C#N)cc3o1)C2	ion current, inhibitor, patch clamp	CHO	pH 7.4	> 10 µM
Cc1cc(/C=C/C#N)cc(C)c1Oc1nc(NC2CCN(Cc3ccc(S(C)(=O)=O)cc3)CC2)nc2ncccc12	ion current, inhibitor, manual patch clamp	CHO-hERG	–	1.48 µM
Cc1ccc(O)c(C)c1OCC(C)N (stereo not drawn)	ion current, inhibitor, patch clamp	–	–	22.4 µM
C=CC(=O)Nc1cccc(Cn2ncc3cnc(Nc4cnn(CCOC)c4)nc32)c1	ion current, inhibitor, patch clamp	–	–	> 30 µM
Clc1ccc2c(c1)nc(N1CC3CNCC3C1)n2Cc1ccccc1 (stereo not drawn)	ion current, inhibitor	–	–	0.02 µM
O=C(c1cccc(S(=O)(=O)N2CCc3ccccc3C2)c1)N1CCC(OCc2ccccc2)CC1	ion current, inhibitor	–	–	7.33 µM
CCNCC#CCNc1ccnc2cc(Cl)ccc12	ion current, inhibitor, patch clamp	CHO	–	12.2 µM
CCN(C(=O)c1cc(F)ccc1Oc1nncnc1N1CCC2(C1)CN([C@H](CCCN(C)CCOC)C(C)C)C2)C(C)C	ion current, inhibitor	–	–	> 30 µM
CC(=O)c1cnc(N)nc1N1CC[C@H]1c1nn2ccc(Cl)c2c(=O)n1-c1ccccc1	potassium current, electrophysiology	–	–	2.3 to 2.9 µM
CN(Cc1nc2ccccc2s1)C(=O)c1cccc(S(=O)(=O)N2CCc3ccccc3C2)c1	ion current, inhibitor	–	–	8.43 µM
CCC(=O)N(C)c1ccc(Cl)c(Cl)c1	hERG current, inhibitor, automated patch clamp	HEK293 stably expressing hERG	–	> 100 µM
CN(CCOc1ccc(F)cc1)C(=O)c1cccc(S(=O)(=O)N2CCc3ccccc3C2)c1	ion current, inhibitor	–	–	8.62 µM
CCN(CC)CC#CCNc1ccnc2cc(Cl)ccc12	ion current, inhibitor, patch clamp	CHO	–	7.3 µM

Repeated from above:
SMILES	test	system	conditions	IC50
COc1ccc2c(c1OCc1ccccc1)C[C@@H](C(=O)O)N(c1nc3ccc(C#N)cc3o1)C2	ion current, inhibitor, patch clamp	CHO	pH 7.4	> 10 µM
CN(Cc1nc2ccccc2s1)C(=O)c1cccc(S(=O)(=O)N2CCc3ccccc3C2)c1	ion current, inhibitor	–	–	8.43 µM
CCNCC#CCNc1ccnc2cc(Cl)ccc12	ion current, inhibitor, patch clamp	CHO	–	12.2 µM
